Assay results gathered from unrelated publications.
Compare with care: the assays were run in different laboratories. ± gives the spread as reported.

COc1cccc(OC)c1-c1cc(C(=O)NC2(C(=O)O)C3CC4CC(C3)CC2C4)nn1-c1ccc(C(=O)NCCNC(=O)[C@H](CCCCNC(=O)[C@H](CC(C)C)NC(=O)C2OC2C(=O)O)NC(=O)CN2CCN(CC(=O)[O-])CCN(CC(=O)[O-])CCN(CC(=O)[O-])CC2)cc1C(C)C.[177Lu+3] (mixture of isomers)
tissue uptake (mouse, HT-29 xenograft, lung; 24 h post injection): 1.8 %ID/g

N#C[C@@H]1CC(F)(F)CN1C(=O)CNC(=O)c1ccnc2c(NC(=O)[C@@H](N)CCCCNC(=O)CCOCCOCCOCCOCCOCCOCCNC(=O)CN3CCN(CC(=O)[O-])CCN(CC(=O)[O-])CCN(CC(=O)[O-])CC3)cccc12.[177Lu+3]
tissue uptake (mouse, U-87 MG tumour xenograft, brain; 1 h): 0.03 ± 0.01 %ID/g

[123I]c1ccc2nc(-c3ccc(-n4ccnn4)nc3)cn2c1
tissue uptake (Wistar rat, bone; intravenous, 24 h): not detected

N#C[C@@H]1CC(F)(F)CN1C(=O)CNC(=O)c1ccnc2c(NC(=O)[C@H](CCCCNC(=O)CCOCCOCCOCCOCCOCCOCCNC(=O)CN3CCN(CC(=O)[O-])CCN(CC(=O)[O-])CCN(CC(=O)[O-])CC3)NC(=O)CCCc3ccc(I)cc3)cccc12.[177Lu+3]
tissue uptake (mouse, U-87 MG tumour xenograft, kidneys; 4 h): 2.07 ± 1.81 %ID/g

CNS(=O)(=O)Nc1nccc(Cc2c(C)c3ccc(Oc4ncccc4F)cc3oc2=O)c1F
IC50 (SiHa; cell viability; 7 days): > 1 µM

O=C1NC2(CC2)COc2ncc(F)cc2[C@H]2COCCN2c2ccn3ncc1c3n2
revertant colonies (Salmonella typhimurium; Ames test; TA102; 150 µg/plate, 48 h, added: without S9): 366 ± 15 revertants/plate

COC1CN([C@H]2CC[C@H]([C@@]3(C)Oc4c(Cl)cc(C(=O)NCc5c(SC)cc(C)[nH]c5=O)c(C)c4O3)CC2)C1
log2 fold change (RNA-seq, item: SMPDL3A mouse homolog; mouse, HT-1376 xenograft, whole blood; dose not given; reference: vehicle): 0.144

COc1cccc(OC)c1-c1cc(C(=O)NC2(C(=O)O)C3CC4CC(C3)CC2C4)nn1-c1ccc(C(=O)N(C)CCCN(C)C(=O)[C@H](CCCCNC(=O)[C@H](CC(C)C)NC(=O)C2OC2C(=O)O)NC(=O)CN2CCN(CC(=O)[O-])CCN(CC(=O)[O-])CCN(CC(=O)[O-])CC2)cc1C(C)C.[177Lu+3] (mixture of isomers)
tissue uptake (mouse, HT-29 xenograft, spleen; 4 h post injection): 0.577 %ID/g

Cc1ncsc1-c1ccc(C(C)NC(=O)C2CC(O)CN2C(=O)C(NC(=O)CCCCCCCCCCN2CCCC(Nc3ncc(Cl)c(Nc4ccccc4S(=O)(=O)C(C)C)n3)C2)C(C)(C)C)cc1 (stereo not shown)
log2 fold change (22Rv1; RNA-seq, item: ZNF425 mRNA; concentration not given; reference: DMSO): -1.91

O=C(O)CCCOc1ccc([18F])cc1-c1cc(-c2ccccc2C(F)(F)F)n(-c2ccccc2)n1
tissue uptake (mouse, blood; intravenous, dose not given, 30 min): 0.23 ± 0.03 %ID/g

CC(C)Cc1ccc(C(C)C(=O)N[C@@H](CCCCNC(=O)CCOCCOCCOCCOCCOCCOCCNC(=O)CN2CCN(CC(=O)[O-])CCN(CC(=O)[O-])CCN(CC(=O)[O-])CC2)C(=O)Nc2cccc3c(C(=O)NCC(=O)N4CC(F)(F)C[C@H]4C#N)ccnc23)cc1.[177Lu+3] (stereo partly shown)
tissue uptake (mouse, U-87 MG tumour xenograft, kidneys; 4 h): 2.7 ± 0.63 %ID/g

COc1cccc(OC)c1-c1cc(C(=O)NC2(C(=O)O)C3CC4CC(C3)CC2C4)nn1-c1ccc(C(=O)N(C)CCCN(C)CCCN(C)C(=O)[C@H](CCCCNC(=O)[C@H](CC(C)C)NC(=O)C2OC2C(=O)O)NC(=O)CN2CCN(CC(=O)[O-])CCN(CC(=O)[O-])CCN(CC(=O)[O-])CC2)cc1C(C)C.[177Lu+3] (mixture of isomers)
tissue uptake (mouse, HT-29 xenograft, spleen; 24 h post injection): 0.8 %ID/g

CCCC[C@H](NC(=O)CNC(=O)CNC(=O)[C@H](CCCCNC(=O)[C@H](CC(=O)O)NC(=O)C(C)c1ccc(CC(C)C)cc1)NC(=O)CN1CCN(CC(=O)O)CCN(CC(=O)O)CCN(CC(=O)O)CC1)C(=O)N[C@H]1CC(=O)NCCCC[C@@H](C(N)=O)NC(=O)[C@H](Cc2c[nH]c3ccccc23)NC(=O)[C@H](CCCNC(=N)N)NC(=O)[C@@H](Cc2ccccc2)NC(=O)[C@H](Cc2c[nH]cn2)NC1=O (stereo partly shown) [lutetium-177 labelled]
tissue uptake (C57 mouse, blood; intravenous, 2 h, added: 10 µg NDP-MSH co-injection): 1.8 ± 0.44 %ID/g

Some of these lines once more:
CNS(=O)(=O)Nc1nccc(Cc2c(C)c3ccc(Oc4ncccc4F)cc3oc2=O)c1F
IC50 (SiHa; cell viability; 7 days): > 1 µM

CC(C)Cc1ccc(C(C)C(=O)N[C@@H](CCCCNC(=O)CCOCCOCCOCCOCCOCCOCCNC(=O)CN2CCN(CC(=O)[O-])CCN(CC(=O)[O-])CCN(CC(=O)[O-])CC2)C(=O)Nc2cccc3c(C(=O)NCC(=O)N4CC(F)(F)C[C@H]4C#N)ccnc23)cc1.[177Lu+3] (stereo partly shown)
tissue uptake (mouse, U-87 MG tumour xenograft, kidneys; 4 h): 2.7 ± 0.63 %ID/g
